# Assay results pooled from the literature.
# ± gives the spread as reported.
# Sequence of UniProt Q6Q1S2 (whole entry, looked up): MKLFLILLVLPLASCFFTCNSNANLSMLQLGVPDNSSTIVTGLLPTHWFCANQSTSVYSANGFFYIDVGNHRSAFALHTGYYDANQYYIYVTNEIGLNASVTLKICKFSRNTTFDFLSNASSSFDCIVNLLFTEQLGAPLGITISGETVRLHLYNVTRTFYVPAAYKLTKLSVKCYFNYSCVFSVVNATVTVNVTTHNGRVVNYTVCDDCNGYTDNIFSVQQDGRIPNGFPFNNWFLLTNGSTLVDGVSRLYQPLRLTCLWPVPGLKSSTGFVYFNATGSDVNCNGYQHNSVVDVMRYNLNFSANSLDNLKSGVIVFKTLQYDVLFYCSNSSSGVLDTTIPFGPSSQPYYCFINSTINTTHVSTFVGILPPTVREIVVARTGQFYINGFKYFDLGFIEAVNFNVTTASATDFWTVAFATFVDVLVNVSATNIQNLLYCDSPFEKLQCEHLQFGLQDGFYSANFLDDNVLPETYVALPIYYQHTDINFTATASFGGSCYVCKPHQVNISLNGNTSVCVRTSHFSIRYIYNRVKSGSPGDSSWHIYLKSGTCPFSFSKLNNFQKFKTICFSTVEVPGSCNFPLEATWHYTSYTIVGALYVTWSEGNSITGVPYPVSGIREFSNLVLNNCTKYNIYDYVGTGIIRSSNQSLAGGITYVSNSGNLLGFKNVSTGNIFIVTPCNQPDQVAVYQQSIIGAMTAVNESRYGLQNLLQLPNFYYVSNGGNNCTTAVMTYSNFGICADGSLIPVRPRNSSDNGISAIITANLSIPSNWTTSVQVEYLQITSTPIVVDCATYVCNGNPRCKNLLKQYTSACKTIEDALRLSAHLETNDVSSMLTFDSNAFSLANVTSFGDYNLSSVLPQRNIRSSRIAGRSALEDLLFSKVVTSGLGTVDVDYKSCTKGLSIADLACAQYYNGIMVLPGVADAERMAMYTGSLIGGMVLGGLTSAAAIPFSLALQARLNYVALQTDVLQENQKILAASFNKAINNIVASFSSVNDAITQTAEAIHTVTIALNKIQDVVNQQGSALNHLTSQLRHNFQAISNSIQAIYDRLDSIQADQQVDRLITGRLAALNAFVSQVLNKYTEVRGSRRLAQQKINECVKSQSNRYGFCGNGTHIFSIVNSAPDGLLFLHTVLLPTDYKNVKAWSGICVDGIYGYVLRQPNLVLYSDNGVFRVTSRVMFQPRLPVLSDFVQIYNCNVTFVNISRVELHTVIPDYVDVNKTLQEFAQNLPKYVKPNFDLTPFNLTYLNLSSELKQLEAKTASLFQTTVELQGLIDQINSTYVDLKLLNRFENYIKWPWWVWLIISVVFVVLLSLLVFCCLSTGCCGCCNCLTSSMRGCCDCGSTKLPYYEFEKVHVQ
# Sequence of UniProt P17787 (whole entry, looked up): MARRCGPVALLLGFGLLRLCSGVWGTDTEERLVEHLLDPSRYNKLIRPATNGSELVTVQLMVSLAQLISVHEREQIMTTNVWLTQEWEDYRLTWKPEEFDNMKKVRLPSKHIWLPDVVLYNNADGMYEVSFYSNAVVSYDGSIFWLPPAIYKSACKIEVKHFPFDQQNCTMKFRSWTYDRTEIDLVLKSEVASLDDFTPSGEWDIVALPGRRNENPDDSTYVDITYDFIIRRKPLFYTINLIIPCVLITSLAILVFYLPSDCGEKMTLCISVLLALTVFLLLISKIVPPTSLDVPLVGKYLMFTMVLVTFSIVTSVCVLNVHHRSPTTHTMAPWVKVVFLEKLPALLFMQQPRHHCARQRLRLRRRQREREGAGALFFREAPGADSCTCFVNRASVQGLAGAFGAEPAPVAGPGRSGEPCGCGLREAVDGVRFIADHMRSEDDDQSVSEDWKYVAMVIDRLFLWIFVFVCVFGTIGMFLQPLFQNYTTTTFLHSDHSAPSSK
# Sequence of UniProt P36544 (whole entry, looked up): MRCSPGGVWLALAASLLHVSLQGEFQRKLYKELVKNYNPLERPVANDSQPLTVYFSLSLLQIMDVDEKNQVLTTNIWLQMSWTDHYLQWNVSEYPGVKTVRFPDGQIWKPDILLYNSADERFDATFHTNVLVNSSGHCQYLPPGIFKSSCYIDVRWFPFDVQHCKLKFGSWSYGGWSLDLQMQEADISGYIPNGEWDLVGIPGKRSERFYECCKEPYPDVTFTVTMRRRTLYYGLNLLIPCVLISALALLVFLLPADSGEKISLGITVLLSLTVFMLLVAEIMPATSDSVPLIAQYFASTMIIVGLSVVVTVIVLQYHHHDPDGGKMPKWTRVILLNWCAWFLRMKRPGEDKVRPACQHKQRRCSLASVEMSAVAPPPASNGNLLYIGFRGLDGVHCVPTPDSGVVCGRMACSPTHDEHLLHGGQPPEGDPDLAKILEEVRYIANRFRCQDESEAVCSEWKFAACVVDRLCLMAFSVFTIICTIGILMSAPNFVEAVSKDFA
# Sequence of UniProt Q9UGM1 (whole entry, looked up): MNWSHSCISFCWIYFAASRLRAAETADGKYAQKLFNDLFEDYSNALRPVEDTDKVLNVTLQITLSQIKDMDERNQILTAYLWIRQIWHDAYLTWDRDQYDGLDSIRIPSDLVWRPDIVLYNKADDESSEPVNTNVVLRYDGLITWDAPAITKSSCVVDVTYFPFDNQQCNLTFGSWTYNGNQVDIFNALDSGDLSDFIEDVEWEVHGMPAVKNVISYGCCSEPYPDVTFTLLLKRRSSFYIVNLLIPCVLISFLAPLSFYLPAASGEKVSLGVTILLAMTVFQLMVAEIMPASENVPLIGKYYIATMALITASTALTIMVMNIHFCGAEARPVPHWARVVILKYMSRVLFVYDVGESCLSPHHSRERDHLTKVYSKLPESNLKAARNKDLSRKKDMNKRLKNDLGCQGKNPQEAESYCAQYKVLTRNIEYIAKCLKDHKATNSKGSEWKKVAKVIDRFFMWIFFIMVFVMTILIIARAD
# Sequence of UniProt Q9GZZ6 (whole entry, looked up): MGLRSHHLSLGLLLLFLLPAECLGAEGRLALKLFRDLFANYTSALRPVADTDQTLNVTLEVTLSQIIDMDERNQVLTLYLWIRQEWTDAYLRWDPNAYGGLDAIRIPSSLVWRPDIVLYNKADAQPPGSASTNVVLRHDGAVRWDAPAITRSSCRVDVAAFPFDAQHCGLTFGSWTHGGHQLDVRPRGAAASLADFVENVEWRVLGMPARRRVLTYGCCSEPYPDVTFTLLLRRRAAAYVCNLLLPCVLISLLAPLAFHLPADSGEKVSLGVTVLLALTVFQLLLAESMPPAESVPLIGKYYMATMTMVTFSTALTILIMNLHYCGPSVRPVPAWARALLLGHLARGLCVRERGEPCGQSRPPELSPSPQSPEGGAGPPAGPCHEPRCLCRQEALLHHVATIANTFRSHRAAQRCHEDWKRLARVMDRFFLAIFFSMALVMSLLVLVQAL
# Sequence of UniProt P43681 (whole entry, looked up): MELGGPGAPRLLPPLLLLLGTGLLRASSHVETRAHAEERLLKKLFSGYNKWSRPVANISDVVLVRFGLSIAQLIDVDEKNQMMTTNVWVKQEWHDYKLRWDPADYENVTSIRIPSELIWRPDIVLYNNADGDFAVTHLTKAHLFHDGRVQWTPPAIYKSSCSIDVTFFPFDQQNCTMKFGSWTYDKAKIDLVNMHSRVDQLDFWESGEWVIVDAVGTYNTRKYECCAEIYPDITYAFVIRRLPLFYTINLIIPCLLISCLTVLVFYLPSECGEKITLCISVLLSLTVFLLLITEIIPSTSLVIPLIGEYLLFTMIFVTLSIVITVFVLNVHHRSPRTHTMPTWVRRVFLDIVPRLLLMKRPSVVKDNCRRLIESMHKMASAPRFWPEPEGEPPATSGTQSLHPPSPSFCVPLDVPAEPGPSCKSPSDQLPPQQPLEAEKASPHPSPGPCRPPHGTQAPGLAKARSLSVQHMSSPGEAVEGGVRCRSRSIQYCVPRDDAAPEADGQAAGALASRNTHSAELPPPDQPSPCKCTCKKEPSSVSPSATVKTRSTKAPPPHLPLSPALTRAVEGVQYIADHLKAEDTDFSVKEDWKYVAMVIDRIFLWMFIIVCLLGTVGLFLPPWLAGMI
Structure (SMILES),target or system,test,system,setting,how to read,measurement,result
C=C1CCCC2=NC[C@H](C)[C@@H](C)C[C@@]23CCC(C(=O)O)=C[C@@H]3[C@@H]2O[C@]3(C[C@H]4CCC[C@@]5(CC[C@@]6(O[C@@H](CC[C@@]6(C)O)C1)O5)O4)C[C@@H](C)[C@@H](O)[C@H]2O3,"Neuronal acetylcholine receptor; alpha4/beta2 (Homo sapiens, UniProt P17787+P43681)","ion current, two-electrode voltage clamp",,oocytes,,IC50,30.4 nM
Cc1cn([C@H]2C=C[C@@H](COP(=O)(O)OP(=O)(O)OP(=O)(O)O)O2)c(=O)[nH]c1=O,"Gag-Pol polyprotein, reverse transcriptase (gag-pol, Human immunodeficiency virus type 1 group M subtype B, UniProt P04585, K652A)",inhibitor,HIV-1,,,IC50,15700 ± 1170 nM
C[C@]12CC[C@H](O)C[C@H]1CC[C@@H]1[C@@H]2CC[C@]2(C)[C@@H](C3=CC(=O)OC3)CC[C@]12O,"Na+/K+-ATPase, pig","ATP hydrolysis, inhibitor",,,,IC50,97 nM
Cc1cn([C@H]2C[C@H](N=[N+]=[N-])[C@@H](CO[P@](=O)(O)O[P@](=O)(O)OP(=O)(O)O)O2)c(=O)[nH]c1=O,"Gag-Pol polyprotein, reverse transcriptase (gag-pol, Human immunodeficiency virus type 1 group M subtype B, UniProt P04585, K653R)",inhibitor,HIV-1,,,IC50,250 nM
O=C1C[C@@H]2OCC=C3CN4CC[C@]56c7ccccc7N1[C@H]5[C@H]2[C@H]3C[C@H]46,"Neuronal acetylcholine receptor; alpha9/alpha10 (Homo sapiens, UniProt Q9GZZ6+Q9UGM1)",inhibitor,,,,IC50,4110 ± 1400 nM
CCOP(=O)(OCC)Oc1ccc([N+](=O)[O-])cc1,rat liver carboxylesterase,"enzyme activity, inhibitor","rat, postnatal day 1, liver homogenate",with: p-nitrophenyl valerate,,IC50,0.13 nM
C[C@H](Cn1cnc2c(N)ncnc21)OCP(=O)(O)O,"Gag-Pol polyprotein, reverse transcriptase (gag-pol, Human immunodeficiency virus type 1 group M subtype B, UniProt P04585, K653A)",inhibitor,HIV-1,,,IC50,1635 ± 1.16 nM
O=C(O)C(=O)C=C(O)c1cn(Cc2ccc(F)cc2)c2cc(N3CCCC3)ccc2c1=O,"Gag-Pol polyprotein, integrase (gag-pol, Human immunodeficiency virus 1, UniProt P12497, N1302H)","concerted integration, inhibitor, measured: donor-donor products",,"3 h, 37 °C",,IC50,260 ± 91 nM
CC[C@H](C)[C@H](NC(=O)[C@H](CCC(=O)O)NC(=O)[C@H](CCCCN)NC(=O)[C@H](CC(C)C)NC(=O)[C@H](CC(N)=O)NC(=O)[C@@H](NC(=O)[C@H](Cc1ccc(O)cc1)NC(=O)[C@H](CO)NC(=O)[C@H](CCC(=O)O)NC(=O)[C@H](CCC(=O)O)NC(=O)[C@H](CC(C)C)NC(=O)[C@H](CCCCN)NC(=O)[C@H](CCCCN)NC(=O)[C@@H](NC(=O)[C@H](C)NC(=O)[C@H](CCC(=O)O)NC(=O)[C@H](CCC(=O)O)NC(=O)[C@H](CC(C)C)NC(=O)[C@H](CCCCN)NC(=O)[C@H](CCCCN)NC(=O)[C@H](CCSC)NC(=O)[C@H](CCC(=O)O)NC(=O)[C@H](CC(=O)O)NC(=O)[C@H](CCC(=O)O)NC(=O)[C@H](CC(C)C)NC(=O)[C@H](CC(=O)O)NC(=O)[C@H](CC(C)C)NC(=O)[C@H](Cc1ccccc1)NC(=O)[C@@H](NC(=O)[C@@H](NC(=O)[C@H](CC(N)=O)NC(=O)[C@@H](NC(=O)[C@H](Cc1ccc(O)cc1)NC(=O)[C@H](CC(=O)O)NC(=O)[C@H](CC(C)C)NC(=O)[C@@H](N)CO)[C@@H](C)CC)C(C)C)[C@@H](C)O)[C@@H](C)CC)[C@@H](C)CC)C(=O)O,"Spike glycoprotein (S, Human coronavirus NL63, UniProt Q6Q1S2)",,,,,IC50,630 ± 120 nM
C=CC1=C[C@@H]2[C@@H]3O[C@]4(C[C@H]5CCC[C@@]6(CC[C@@]7(O[C@@H](CC[C@@]7(C)O)CC(=C)CCCC7=NC[C@H](C)[C@@H](C)C[C@@]72CC1)O6)O5)C[C@@H](C)[C@@H](O)[C@H]3O4,"Neuronal acetylcholine receptor subunit alpha-7 (CHRNA7, Homo sapiens, UniProt P36544)","ion current, antagonist, two-electrode voltage clamp",,oocytes,,IC50,5.06 nM
CC[C@H](C)[C@H](NC(=O)[C@H](CC(C)C)NC(=O)[C@H](Cc1c[nH]c2ccccc12)NC(=O)[C@H](CCC(N)=O)NC(=O)[C@@H](NC(=O)[C@H](Cc1ccccc1)NC(=O)[C@H](C)NC(=O)[C@H](CCCCNC(=O)COCCOCCNC(=O)COCCOCCNC(=O)CC[C@H](NC(=O)CCCCCCCCCCCCCCCCCCC(=O)O)C(=O)O)NC(=O)[C@H](CCC(N)=O)NC(=O)[C@H](C)NC(=O)[C@@H](NC(=O)[C@H](CCCCN)NC(=O)[C@H](CC(=O)O)NC(=O)[C@H](CC(C)C)NC(=O)C(C)(C)NC(=O)[C@@H](NC(=O)[C@H](CO)NC(=O)[C@H](Cc1ccc(O)cc1)NC(=O)[C@H](CC(=O)O)NC(=O)[C@H](CO)NC(=O)[C@@H](NC(=O)[C@H](Cc1ccccc1)NC(=O)[C@@H](NC(=O)CNC(=O)[C@H](CCC(=O)O)NC(=O)C(C)(C)NC(=O)[C@@H](N)Cc1ccc(O)cc1)[C@@H](C)O)[C@@H](C)O)[C@@H](C)CC)[C@@H](C)CC)C(C)C)C(=O)N[C@@H](C)C(=O)NCC(=O)NCC(=O)N1CCC[C@H]1C(=O)N[C@@H](CO)C(=O)N[C@@H](CO)C(=O)NCC(=O)N[C@@H](C)C(=O)N1CCC[C@H]1C(=O)N1CCC[C@H]1C(=O)N1CCC[C@H]1C(=O)N[C@@H](CO)C(N)=O,,measured: treatment-emergent upper respiratory tract infection,healthy subjects,"0.5 mg, multiple ascending dose",,subjects with adverse event,16.7%
Cn1cnc(Cn2c(=O)[nH]/c(=N\c3cc4cn(C)nc4cc3Cl)n(Cc3cc(F)c(F)cc3F)c2=O)n1,,,"human, severe renal impairment","oral, 375 mg, decreased GFR TEAE, severe severity",,patients with adverse event,0%
Nc1ncnc2c([C@@H]3N[C@H](CO)[C@@H](O)[C@H]3O)c[nH]c12,Middle East respiratory syndrome-related coronavirus,viral replication,"Vero C1008, Jordan N3",12.5 µM,,inhibition,9.5%
CNC(=O)[C@@H](NC(=O)[C@H](CC(C)C)[C@H](O)C(=O)NO)C(C)(C)C,Daboia russelii venom proteases (SVMP),"protease activity, inhibitor",RJ population,"0.01 µM, with: azocasein substrate",baseline: venom alone,remaining activity,100%
O=c1cc(-c2ccccc2)oc2c(O)c(O)ccc12,"Spike glycoprotein (Severe acute respiratory syndrome coronavirus 2, UniProt P0DTC2)","binding, BLI",,,,Kd,39700 nM
COc1ccc2ccccc2c1/C=N/NC(=O)c1ccc(O)c(O)c1,"Gag-Pol polyprotein, reverse transcriptase A502G (gag-pol, Human immunodeficiency virus type 1 group M subtype B, UniProt P04585, A1089G)","RNase H activity, inhibitor",HIV-1,,,IC50,13700 ± 5200 nM

# Repeated from above:
Structure (SMILES),target or system,test,system,setting,how to read,measurement,result
Cn1cnc(Cn2c(=O)[nH]/c(=N\c3cc4cn(C)nc4cc3Cl)n(Cc3cc(F)c(F)cc3F)c2=O)n1,,,"human, severe renal impairment","oral, 375 mg, decreased GFR TEAE, severe severity",,patients with adverse event,0%
COc1ccc2ccccc2c1/C=N/NC(=O)c1ccc(O)c(O)c1,"Gag-Pol polyprotein, reverse transcriptase A502G (gag-pol, Human immunodeficiency virus type 1 group M subtype B, UniProt P04585, A1089G)","RNase H activity, inhibitor",HIV-1,,,IC50,13700 ± 5200 nM
